Assay results of several laboratories.
Compare with care: the assays were run in different laboratories. ± marks the error that the study gave. Ends that are not written are not given here.

Molecule	assay	test system	setting	endpoint	result
CC(C)[C@H](NC(=O)[C@@H]1CCCN1C(=O)[C@H](CCCNC(=N)N)NC(=O)[C@H](CS)NC(=O)[C@H](Cc1c[nH]c2ccccc12)NC(=O)[C@H](CCCNC(=N)N)NC(=O)[C@@H](Cc1ccccc1)NC(=O)[C@H](Cc1c[nH]cn1)NC(=O)[C@H](CCC(=O)O)NC(=O)[C@H](CS)NC(=O)[C@H](CS)NC(=O)[C@H](CCCNC(=N)N)NC(=O)[C@@H]1CC(=O)N[C@@H](CCCNC(=N)N)C(=O)N[C@@H](C)C(=O)N[C@@H](CC(=O)O)C(=O)N[C@H](Cc2ccc(O)cc2)C(=O)N1)C(N)=O [technetium-99m labelled]		C57 mouse, intestine	intravenous, 0.037 MBq, 4 h	tissue uptake	2.24 ± 1.08 %ID
insulin degludec		human, mild hepatic impairment, serum	subcutaneous, 0.4 U/kg single dose	AUC(0-120 h)	0.0833 µM·h
insulin degludec	insulin degludec-specific ELISA	healthy human subjects, serum	subcutaneous, thigh, 0.4 U/kg	AUC(0-120 h)	0.0767 µM·h
Insulin human	ELISA	rat, ventral cortex	intranasal, 20 µg per nostril, 15 min	concentration	0 pg/mg tissue
insulin lispro		human, type 1 diabetes	subcutaneous, FAST PK setting, no carbohydrate interventions	time to 95% clearance	6.4 h
KCNTATCATQRLANFLVHSSNNFGPILPPTNVGSNTY (Pramlintide; not fully specified (C-terminus, bridges); cysteine pairing not given here; sequence looked up)		peptide, obese or overweight humans	dose not given, through week 20, ITT	withdrawal due to adverse event	5%
COc1cccc2c1C(=O)c1c(O)c3c(c(O)c1C2=O)C[C@@](O)(C(=O)CO)C[C@@H]3O[C@H]1C[C@H](NC(=O)[C@@H]2CCCN2C(=O)CNC(=O)[C@@H](N)CC(C)C)[C@H](O)[C@H](C)O1		mouse, E0771 tumour-bearing, kidney	intravenous, 92 µmol/kg PhAc-ALGP-Dox	terminal half-life	3.3 h
CSCC[C@H](NC(=O)[C@H](CC(C)C)NC(=O)[C@H](Cc1c[nH]cn1)NC(=O)CNC(=O)[C@@H](NC(=O)[C@H](C)NC(=O)[C@H](Cc1c[nH]c2ccccc12)NC(=O)[C@H](CCC(N)=O)NC(=O)CCCCCNC(=O)[C@H](CCC(=O)NCCCC[C@@H]1NC(=O)[C@@H](Cc2ccc(O)cc2)NC(=O)[C@H](CC(=O)O)NC(=O)CNC(=O)[C@H](CCCNC(=N)N)NC1=O)NC(=O)CN1CCN(CC(=O)O)CCN(CC(=O)O)CC1)C(C)C)C(N)=O [copper-64 labelled]		ICR SCID mouse, female, stomach	intravenous, 750 kBq, 1 h	tissue uptake	1.43 ± 1.16 %ID/g
COc1cccc2c1C(=O)c1c(O)c3c(c(O)c1C2=O)C[C@@](O)(C(=O)CO)C[C@@H]3O[C@H]1C[C@H](NC(=O)[C@@H]2CCCN2C(=O)CN)[C@H](O)[C@H](C)O1		mouse, E0771 tumour-bearing, tumor	intravenous, 92 µmol/kg PhAc-ALGP-Dox	terminal half-life	10 h
rnpA F107W (Bacillus subtilis)	NMR, refers to: His3		25 °C, 1.00 M NaCl, folded, sulfate-bound, together with: sulfate 20 mM	pKa	6.23
CC(C)[C@H](NC(=O)[C@@H]1CCCN1C(=O)[C@H](CCCNC(=N)N)NC(=O)[C@H](CS)NC(=O)[C@H](Cc1c[nH]c2ccccc12)NC(=O)[C@H](CCCNC(=N)N)NC(=O)[C@@H](Cc1ccccc1)NC(=O)[C@H](Cc1c[nH]cn1)NC(=O)[C@H](CCC(=O)O)NC(=O)[C@H](CS)NC(=O)[C@H](CS)NC(=O)[C@H](CCCCN)NC(=O)[C@@H]1CC(=O)N[C@@H](CCCNC(=N)N)C(=O)N[C@@H](C)C(=O)N[C@@H](CC(=O)O)C(=O)N[C@H](Cc2ccc(O)cc2)C(=O)N1)C(N)=O [technetium-99m labelled]		C57 mice, brain	intravenous, 0.037 MBq, 4 h	tissue uptake	0.02 %ID/g

For quick reference, copied from above:
Molecule	assay	test system	setting	endpoint	result
COc1cccc2c1C(=O)c1c(O)c3c(c(O)c1C2=O)C[C@@](O)(C(=O)CO)C[C@@H]3O[C@H]1C[C@H](NC(=O)[C@@H]2CCCN2C(=O)CNC(=O)[C@@H](N)CC(C)C)[C@H](O)[C@H](C)O1		mouse, E0771 tumour-bearing, kidney	intravenous, 92 µmol/kg PhAc-ALGP-Dox	terminal half-life	3.3 h
